{"data": "Assay results of several laboratories", "note": "Each line is one published result; not all experiments were run side by side. Several values in a cell are separate wells, animals, samples, runs or records. Numbers after ± are the reported error.", "chain of UniProt Q9UM07 (whole entry, looked up)": "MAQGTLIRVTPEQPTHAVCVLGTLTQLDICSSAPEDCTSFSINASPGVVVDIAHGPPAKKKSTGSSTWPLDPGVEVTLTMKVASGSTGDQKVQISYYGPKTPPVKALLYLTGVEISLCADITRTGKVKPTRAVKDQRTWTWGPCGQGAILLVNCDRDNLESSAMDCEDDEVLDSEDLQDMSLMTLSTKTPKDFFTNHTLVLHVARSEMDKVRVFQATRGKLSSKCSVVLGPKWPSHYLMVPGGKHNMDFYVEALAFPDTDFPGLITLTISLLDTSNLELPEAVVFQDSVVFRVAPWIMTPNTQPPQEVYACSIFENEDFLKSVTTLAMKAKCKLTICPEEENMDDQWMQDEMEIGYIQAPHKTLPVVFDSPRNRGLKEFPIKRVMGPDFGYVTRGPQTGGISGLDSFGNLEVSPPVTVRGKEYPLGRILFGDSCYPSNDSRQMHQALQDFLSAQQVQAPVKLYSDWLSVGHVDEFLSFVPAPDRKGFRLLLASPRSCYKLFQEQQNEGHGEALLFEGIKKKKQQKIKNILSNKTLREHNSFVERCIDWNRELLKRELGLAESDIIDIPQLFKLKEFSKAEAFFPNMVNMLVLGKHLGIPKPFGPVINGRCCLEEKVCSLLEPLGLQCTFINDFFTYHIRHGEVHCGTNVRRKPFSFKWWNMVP", "chain of UniProt Q9P286 (whole entry, looked up)": "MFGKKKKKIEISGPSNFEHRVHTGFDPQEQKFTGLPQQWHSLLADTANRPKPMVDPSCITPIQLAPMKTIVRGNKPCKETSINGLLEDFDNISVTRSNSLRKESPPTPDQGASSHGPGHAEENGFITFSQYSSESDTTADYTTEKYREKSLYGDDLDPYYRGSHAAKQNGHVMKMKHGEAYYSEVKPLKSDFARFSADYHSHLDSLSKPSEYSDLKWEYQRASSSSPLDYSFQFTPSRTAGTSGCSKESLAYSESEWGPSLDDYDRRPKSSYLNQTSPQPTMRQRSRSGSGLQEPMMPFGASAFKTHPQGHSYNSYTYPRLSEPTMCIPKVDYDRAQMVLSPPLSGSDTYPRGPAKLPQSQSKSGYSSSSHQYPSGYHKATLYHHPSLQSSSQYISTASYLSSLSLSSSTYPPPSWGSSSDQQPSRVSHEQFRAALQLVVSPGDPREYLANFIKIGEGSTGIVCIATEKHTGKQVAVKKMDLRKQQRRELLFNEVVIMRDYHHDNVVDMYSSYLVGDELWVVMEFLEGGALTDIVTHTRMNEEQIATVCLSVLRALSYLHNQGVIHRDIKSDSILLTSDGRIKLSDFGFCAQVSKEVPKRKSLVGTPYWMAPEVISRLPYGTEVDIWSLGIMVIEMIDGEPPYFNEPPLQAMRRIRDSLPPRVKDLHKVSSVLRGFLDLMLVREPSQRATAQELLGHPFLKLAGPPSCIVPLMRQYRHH", "chain of UniProt Q3TRM4 (whole entry, looked up)": "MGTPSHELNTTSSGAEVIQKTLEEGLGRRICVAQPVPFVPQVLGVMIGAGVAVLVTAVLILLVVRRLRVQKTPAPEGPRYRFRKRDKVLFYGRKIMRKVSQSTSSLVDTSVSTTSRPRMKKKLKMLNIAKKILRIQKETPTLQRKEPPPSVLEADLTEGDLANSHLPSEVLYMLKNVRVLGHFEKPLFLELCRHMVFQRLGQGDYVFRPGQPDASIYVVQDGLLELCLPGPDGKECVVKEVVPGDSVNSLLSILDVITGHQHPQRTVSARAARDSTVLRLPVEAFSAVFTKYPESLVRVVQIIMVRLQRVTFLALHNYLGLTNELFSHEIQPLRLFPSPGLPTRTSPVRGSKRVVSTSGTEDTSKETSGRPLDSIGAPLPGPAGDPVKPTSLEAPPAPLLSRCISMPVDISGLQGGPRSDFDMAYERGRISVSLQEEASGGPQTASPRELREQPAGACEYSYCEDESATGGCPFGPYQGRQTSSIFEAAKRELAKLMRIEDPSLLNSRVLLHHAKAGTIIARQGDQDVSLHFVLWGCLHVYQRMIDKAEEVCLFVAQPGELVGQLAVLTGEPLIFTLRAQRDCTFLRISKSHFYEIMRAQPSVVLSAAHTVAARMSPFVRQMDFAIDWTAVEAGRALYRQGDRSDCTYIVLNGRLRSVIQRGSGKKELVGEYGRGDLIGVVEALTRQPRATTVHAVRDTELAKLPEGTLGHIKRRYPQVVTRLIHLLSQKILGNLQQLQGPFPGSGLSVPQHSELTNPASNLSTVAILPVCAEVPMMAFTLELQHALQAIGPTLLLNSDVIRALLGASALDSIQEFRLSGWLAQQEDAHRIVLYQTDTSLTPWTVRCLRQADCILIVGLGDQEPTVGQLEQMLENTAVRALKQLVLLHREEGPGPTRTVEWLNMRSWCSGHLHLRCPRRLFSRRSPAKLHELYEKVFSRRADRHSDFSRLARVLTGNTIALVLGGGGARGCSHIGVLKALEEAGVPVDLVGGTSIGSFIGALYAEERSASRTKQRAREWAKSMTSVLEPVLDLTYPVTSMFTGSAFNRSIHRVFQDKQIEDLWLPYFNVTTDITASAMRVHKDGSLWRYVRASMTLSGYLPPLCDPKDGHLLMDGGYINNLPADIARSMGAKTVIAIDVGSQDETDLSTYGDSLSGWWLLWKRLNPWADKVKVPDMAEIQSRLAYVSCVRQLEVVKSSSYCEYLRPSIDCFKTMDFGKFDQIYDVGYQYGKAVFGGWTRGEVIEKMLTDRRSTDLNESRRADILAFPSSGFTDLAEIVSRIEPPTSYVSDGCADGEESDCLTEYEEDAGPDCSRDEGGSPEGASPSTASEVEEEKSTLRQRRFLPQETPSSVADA", "chain of UniProt Q15139 (whole entry, looked up)": "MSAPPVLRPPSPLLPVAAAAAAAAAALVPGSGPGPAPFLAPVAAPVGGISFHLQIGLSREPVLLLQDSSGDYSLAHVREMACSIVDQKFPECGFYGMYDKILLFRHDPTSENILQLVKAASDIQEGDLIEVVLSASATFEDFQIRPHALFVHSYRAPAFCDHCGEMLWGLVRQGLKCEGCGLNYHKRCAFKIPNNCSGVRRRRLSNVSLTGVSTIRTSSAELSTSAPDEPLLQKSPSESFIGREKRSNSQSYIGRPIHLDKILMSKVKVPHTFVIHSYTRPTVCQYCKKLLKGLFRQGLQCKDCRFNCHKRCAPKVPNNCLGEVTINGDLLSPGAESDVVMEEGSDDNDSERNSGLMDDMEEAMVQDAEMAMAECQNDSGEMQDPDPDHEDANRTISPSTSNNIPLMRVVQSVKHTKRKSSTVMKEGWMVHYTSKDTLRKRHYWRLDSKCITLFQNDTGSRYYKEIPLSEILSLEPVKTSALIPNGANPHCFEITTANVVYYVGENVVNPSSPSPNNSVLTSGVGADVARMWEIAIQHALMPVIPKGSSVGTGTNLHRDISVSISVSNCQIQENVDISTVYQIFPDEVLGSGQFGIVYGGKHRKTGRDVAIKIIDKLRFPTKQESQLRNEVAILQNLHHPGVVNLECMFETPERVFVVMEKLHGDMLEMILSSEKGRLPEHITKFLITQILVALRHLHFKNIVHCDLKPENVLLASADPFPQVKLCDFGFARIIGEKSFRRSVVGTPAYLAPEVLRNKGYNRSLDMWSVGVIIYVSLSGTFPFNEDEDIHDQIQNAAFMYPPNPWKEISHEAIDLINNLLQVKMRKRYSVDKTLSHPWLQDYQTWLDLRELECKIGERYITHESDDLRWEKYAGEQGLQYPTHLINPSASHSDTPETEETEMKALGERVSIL", "chain of UniProt Q9BZL6 (whole entry, looked up)": "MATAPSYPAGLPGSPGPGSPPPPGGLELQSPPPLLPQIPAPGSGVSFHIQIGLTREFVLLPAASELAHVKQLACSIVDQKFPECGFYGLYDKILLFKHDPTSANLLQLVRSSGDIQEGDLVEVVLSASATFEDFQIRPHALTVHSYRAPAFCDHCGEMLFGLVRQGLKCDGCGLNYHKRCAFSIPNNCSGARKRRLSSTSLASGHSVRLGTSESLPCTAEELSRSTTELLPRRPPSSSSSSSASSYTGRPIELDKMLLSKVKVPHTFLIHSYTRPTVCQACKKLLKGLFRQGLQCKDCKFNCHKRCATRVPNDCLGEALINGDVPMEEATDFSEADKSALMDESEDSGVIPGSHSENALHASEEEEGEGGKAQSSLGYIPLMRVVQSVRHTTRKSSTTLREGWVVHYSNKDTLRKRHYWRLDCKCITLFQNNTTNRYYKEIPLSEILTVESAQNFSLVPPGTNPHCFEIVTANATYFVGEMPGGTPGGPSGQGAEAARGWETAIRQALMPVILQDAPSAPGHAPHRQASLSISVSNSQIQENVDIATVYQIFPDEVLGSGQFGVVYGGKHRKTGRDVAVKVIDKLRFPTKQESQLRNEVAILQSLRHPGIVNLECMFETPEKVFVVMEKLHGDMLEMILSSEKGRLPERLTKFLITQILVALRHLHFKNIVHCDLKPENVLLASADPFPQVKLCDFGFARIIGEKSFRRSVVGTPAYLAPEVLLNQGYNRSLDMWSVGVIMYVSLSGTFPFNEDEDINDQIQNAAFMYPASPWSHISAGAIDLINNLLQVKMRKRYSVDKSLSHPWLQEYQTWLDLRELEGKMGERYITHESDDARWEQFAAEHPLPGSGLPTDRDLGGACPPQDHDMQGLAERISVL", "chain of UniProt P0A988 (whole entry, unmodified, looked up)": "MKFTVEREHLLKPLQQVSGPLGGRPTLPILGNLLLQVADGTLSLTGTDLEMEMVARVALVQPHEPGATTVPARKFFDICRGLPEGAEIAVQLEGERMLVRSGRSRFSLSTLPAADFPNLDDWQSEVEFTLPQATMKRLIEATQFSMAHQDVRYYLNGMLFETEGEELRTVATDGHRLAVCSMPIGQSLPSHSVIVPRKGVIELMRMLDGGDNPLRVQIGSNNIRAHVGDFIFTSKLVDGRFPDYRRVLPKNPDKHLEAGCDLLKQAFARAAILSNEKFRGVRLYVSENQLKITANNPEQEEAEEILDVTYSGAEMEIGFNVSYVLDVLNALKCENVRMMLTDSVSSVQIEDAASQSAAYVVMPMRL"}
{"SMILES": "CC(C)[C@H]1NC(=O)C[C@H]2/C=C/CCSSC[C@@H](NC1=O)C(=O)N[C@H](Cc1cccc3ccccc13)C(=O)NCC(=O)O2", "target": "PRKX (Homo sapiens, UniProt P51817)", "assay": "enzyme activity, inhibitor", "conditions": "10 µM", "endpoint": "inhibition", "result": "8.2%"}
{"SMILES": "OB(O)c1cnn(-c2cc(Cl)ncn2)c1", "target": "Chymotrypsinogen A (Bos taurus, UniProt P00766)", "assay": "pNA substrate hydrolysis", "how to read": "baseline: Ki protease over Ki AmpC", "endpoint": "selectivity ratio", "result": 9900}
{"SMILES": "O=C(O)c1cccc(CP(=O)(O)O)n1", "target": "VIM-2 (Escherichia coli, UniProt Q5U7L7)", "assay": "enzyme activity, inhibitor", "conditions": "added: nitrocefin", "endpoint": "kon", "result": "8000 ± 833 M⁻¹ s⁻¹"}
{"SMILES": "N[C@H](C(=O)N1CCCC1)C1CCN(c2nccc3c(-c4ncc(Cl)cc4Cl)cccc23)CC1", "target": "PADI4 (Homo sapiens, UniProt Q9UM07)", "assay": "enzyme activity", "conditions": "3.84 µM, low-affinity site, added: Ca2+ 0.25 mM", "endpoint": "kcat", "result": "0.0259 s⁻¹ and 0.0397 s⁻¹"}
{"SMILES": "O=C1NC(=O)c2c1c1cc(F)c[n+]3c1c1c2c2cc(O)ccc2[n]1[Ru-4]312([N]=C=S)[S+]3CC[S+]1CC[S+]2CC3 (centres unmarked)", "target": "PRKD1 (Homo sapiens, UniProt Q15139)", "assay": "enzyme activity", "conditions": "100 nM, human enzyme, added: 10 µM ATP", "how to read": "baseline: untreated", "endpoint": "remaining activity", "result": "76%"}
{"SMILES": "CSCC[C@@H](N)C(=O)N[C@H](C)C(=O)N[C@H](C)C(=O)N[C@@H](C(=O)N[C@H](C)C(=O)NCC(=O)N[C@H](CC(C)C)C(=O)N[C@H](Cc1ccc(O)cc1)C(=O)NCC(=O)N[C@H](CC(C)C)C(=O)NCC(=O)N[C@H](CCC(=O)O)C(=O)N[C@H](CC(=O)O)C(=O)N[C@H](CCCNC(=N)N)C(=O)N[C@H](CCC(N)=O)C(=O)N[C@H](Cc1c[nH]cn1)C(=O)N[C@H](CCCNC(=N)N)C(=O)N[C@H](CCCCN)C(=O)N[C@H](CCCCN)C(=O)N[C@H](CCC(N)=O)C(N)=O)C(C)C", "target": "Sh, DEL6-46 (Drosophila melanogaster, UniProt P08510)", "assay": "ion current, blocker, inside-out patch clamp", "conditions": "+90 mV", "endpoint": "Hill coefficient", "result": 0.83}
{"SMILES": "CCCCC/C=C\\C/C=C\\C/C=C\\C/C=C\\CCCC(=O)NCCc1ccc(O)c(O)c1", "target": "Trpv1 (Mus musculus, UniProt Q704Y3, E571A)", "assay": "patch clamp", "conditions": "E571A mutant channel", "endpoint": "Hill coefficient", "result": "2.19 ± 0.09"}
{"SMILES": "CC(C)CC(O)(CC(C)C)c1cn(C(=O)N2CCCC2)nn1", "target": "Patatin-like phospholipase domain-containing protein 6 (Mus musculus, UniProt Q3TRM4)", "test system": "mouse, brain", "conditions": "concentration not given", "how to read": "baseline: vehicle over compound", "endpoint": "activity-based probe labelling ratio", "result": 1.29}
{"SMILES": "CC(C)(O)C(=O)N1CCN(C(=O)Cc2ccc(Cl)c(Cl)c2)[C@H]2[C@H]1COC[C@@H]2N1CCCC1 (single isomer, unassigned)", "target": "OPRK1 (Homo sapiens, UniProt P41145)", "assay": "β-arrestin-2 recruitment, agonist", "test system": "U2OS", "conditions": "1.5 h", "how to read": "baseline: U-69593 maximal response", "endpoint": "Emax", "result": "60%"}
{"SMILES": "C=CC(=O)NC[C@H](NC(=O)[C@H](CC1CCCCC1)NC(=O)[C@H](CCC(N)=O)NC(C)=O)C(=O)N[C@@H](CC(C)C)C(=O)N[C@@H](Cc1ccccc1)C(=O)O", "target": "Beta sliding clamp (Escherichia coli, UniProt P0A988)", "assay": "binding, isothermal titration calorimetry", "conditions": "22 °C", "endpoint": "ΔH", "result": "-11.4 kcal/mol"}
{"SMILES": "CS(C)(=O)=Nc1ccc(-c2ccc(-c3nc4cc(O[C@@H]5CO[C@H]6[C@@H]5OC[C@H]6O)[nH]c4cc3F)cc2)cc1", "target": "GRPR (Homo sapiens, UniProt P30550)", "assay": "calcium signal, antagonist", "conditions": "10 µM", "endpoint": "inhibition", "result": "42%"}
{"SMILES": "CN(C)[C@H]1C[C@@]23CC[C@@]4(O2)C(=CC[C@]2(C)[C@@H](c5ccc6ccncc6c5)CC[C@H]24)C=C3[C@@H](O)[C@@H]1O", "target": "PRKD2 (Homo sapiens, UniProt Q9BZL6)", "assay": "ATP probe labelling, inhibitor, KiNativ profiling", "conditions": "1 µM", "endpoint": "inhibition", "result": "-4.9%"}
{"SMILES": "O=C(N[C@@H]1c2ccccc2C[C@H]1N1CCCC1)c1ccc(-c2ccnc3[nH]ccc23)nc1", "target": "PAK5 (Homo sapiens, UniProt Q9P286)", "assay": "binding, competition with immobilised ligand", "conditions": "3 µM", "endpoint": "remaining binding", "result": "1.6%"}
{"SMILES": "Cc1ccc(N2CC3CCC(C2)N3C)cc1C(=O)N[C@H](C)c1cc(-c2cnn(C)c2)nc2ccccc12", "target": "Cathepsin B (CTSB, Homo sapiens, UniProt P07858)", "assay": "enzyme activity", "conditions": "30 µM", "endpoint": "remaining activity", "result": "111%"}
{"note": "Excerpt of the above:"}
{"SMILES": "CS(C)(=O)=Nc1ccc(-c2ccc(-c3nc4cc(O[C@@H]5CO[C@H]6[C@@H]5OC[C@H]6O)[nH]c4cc3F)cc2)cc1", "target": "GRPR (Homo sapiens, UniProt P30550)", "assay": "calcium signal, antagonist", "conditions": "10 µM", "endpoint": "inhibition", "result": "42%"}
{"SMILES": "CN(C)[C@H]1C[C@@]23CC[C@@]4(O2)C(=CC[C@]2(C)[C@@H](c5ccc6ccncc6c5)CC[C@H]24)C=C3[C@@H](O)[C@@H]1O", "target": "PRKD2 (Homo sapiens, UniProt Q9BZL6)", "assay": "ATP probe labelling, inhibitor, KiNativ profiling", "conditions": "1 µM", "endpoint": "inhibition", "result": "-4.9%"}
